Experimental data from different studies.
Each numbered part is a random draw from the data of one study; scales do not carry over between parts.

Block 1
Target: Centromere-binding protein 1, full length, His-tagged (CBF1, Saccharomyces cerevisiae, UniProt P17106, residues 1-351)
UniProt P17106, sequence (whole entry, looked up): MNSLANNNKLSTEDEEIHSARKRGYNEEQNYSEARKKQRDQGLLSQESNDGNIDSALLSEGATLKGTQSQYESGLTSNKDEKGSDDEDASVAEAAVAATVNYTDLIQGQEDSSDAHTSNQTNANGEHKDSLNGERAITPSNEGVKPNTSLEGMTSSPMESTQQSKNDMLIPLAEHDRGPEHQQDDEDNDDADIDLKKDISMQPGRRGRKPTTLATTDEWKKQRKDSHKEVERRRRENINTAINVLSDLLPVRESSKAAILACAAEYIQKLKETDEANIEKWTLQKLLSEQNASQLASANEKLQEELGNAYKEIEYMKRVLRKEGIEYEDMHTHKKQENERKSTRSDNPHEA
Technique: competition protein-binding microarray
Molecule type: double-stranded DNA, one strand shown
Matrix: in vitro
Tested at: 2 µM
Notes: whole 60-bp probe, lowest competitor level
With: Pho4 competitor, 0.05 µM
Reading: higher = stronger binding
Measurement: fluorescence intensity
All sequences stand within: … GTCTTGATTCGCTTGACGCTGCTG
Oligonucleotide = TGCGCAACAACTTGGCGTGTGGGTGTATGTCTAGAA; result = 59.7 a.u.
Oligonucleotide = TAAACGAGTACTTCACACGTAGGCCAAAGCACTCCA; result = 61.6 a.u.
Oligonucleotide = TACAATAAATAAGTTCTATCATAATACAAGGGAATT; result = 78.2 a.u.
Oligonucleotide = CCTTGATGGTTCCGTCACGGGAACCAGAGATAATCA; result = 291 a.u.
Oligonucleotide = CATACCCAACCTTGTATAGTGGGTGAAGATATTTGT; result = 69.3 a.u.
Oligonucleotide = TTTGATCTGATAGGACTCGTGCCAGCACAAGTCCTT; result = 102 a.u.
Oligonucleotide = CCTTGTTCGAGTTTGGACGTGCGGAGAATCTACCCA; result = 74.2 a.u.
Oligonucleotide = AAATTACTAAGTTTTCACGTGATTTACCCCGTATGA; result = 3670 a.u.

Block 2
Target: Cyclic AMP-responsive element-binding protein 1 (CREB1, Homo sapiens, UniProt P16220, residues 1-327, full length assumed)
UniProt P16220, sequence (whole entry, looked up): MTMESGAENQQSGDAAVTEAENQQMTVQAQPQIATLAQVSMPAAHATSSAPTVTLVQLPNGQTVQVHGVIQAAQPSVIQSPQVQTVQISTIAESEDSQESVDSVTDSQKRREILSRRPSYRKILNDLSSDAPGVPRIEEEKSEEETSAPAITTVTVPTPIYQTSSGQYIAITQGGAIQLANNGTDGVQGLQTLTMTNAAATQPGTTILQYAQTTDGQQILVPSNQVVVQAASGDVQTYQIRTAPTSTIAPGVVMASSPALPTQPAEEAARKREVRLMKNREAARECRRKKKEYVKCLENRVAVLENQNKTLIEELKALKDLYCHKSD
Technique: protein-binding microarray
Molecule type: double-stranded DNA, one strand shown
Matrix: in vitro
Tested at: not given
Notes: k-mer, scored over probes, only values ≥0.25
Reading: higher = stronger binding
Measurement: E-score
Oligonucleotide = ACGCGTC; result = 0.318
Oligonucleotide = ATTACAG; result = 0.254
Oligonucleotide = ACGTAAG; result = 0.331
Oligonucleotide = CGCGTCA; result = 0.477
Oligonucleotide = TGACGCA; result = 0.468
Oligonucleotide = ACGTAGG; result = 0.282
Oligonucleotide = ATGACGA; result = 0.475
Oligonucleotide = TAACGTA; result = 0.307
Oligonucleotide = AGCGTCA; result = 0.426
Oligonucleotide = ATGATAA; result = 0.274

Block 3
Target: Histone acetyltransferase KAT6A, both winged helices, GST fusion (KAT6A, Homo sapiens, UniProt Q92794, residues 1-181)
Technique: protein binding microarray
Molecule type: double-stranded DNA, one strand shown
Matrix: in vitro
Tested at: not given
Notes: 8-mer, flanks averaged, mean of 2 arrays, mostly near background
Relative to: not given
Reading: higher = stronger binding
Measurement: E-score
Construct (chain): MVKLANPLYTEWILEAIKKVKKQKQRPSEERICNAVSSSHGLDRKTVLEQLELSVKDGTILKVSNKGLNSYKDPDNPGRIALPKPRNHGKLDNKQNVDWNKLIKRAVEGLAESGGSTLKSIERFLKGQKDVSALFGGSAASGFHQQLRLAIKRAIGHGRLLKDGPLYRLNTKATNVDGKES
Oligonucleotide = TTGTACAA; result = 0.00575
Oligonucleotide = AGAGGGTC; result = -0.213
Oligonucleotide = GCGCCCGA; result = 0.272
Oligonucleotide = CAAATAGG; result = -0.125
Oligonucleotide = ATCCCTGG; result = -0.154
Oligonucleotide = CGCACCCA; result = 0.114
Oligonucleotide = AAGAAGAA; result = -0.0292
Oligonucleotide = AGACGGAA; result = 0.152

Mixed results
Substance = PhoQ, residues 284 288 289 292 302 303 TGYLSA; target = PhoP, residues 12 14 15 18 19 VQGLL (Escherichia coli, UniProt P23836); test = Sort-seq, measured: YFP reporter; test system = E. coli; setting = PhoQ-PhoP variant library, with: 10 µM Mg2+; how to read = relative to: high Mg2+ state, higher = stronger signaling; measurement = fold induction; result = 2.88

Some of these lines once more (block 3):
Oligonucleotide = AGAGGGTC; result = -0.213
Oligonucleotide = CGCACCCA; result = 0.114
